Assay results gathered from unrelated publications.
Every numbered part comes from another study and shows a few of its results, in no order.
UniProt Q92772, sequence (whole entry, looked up): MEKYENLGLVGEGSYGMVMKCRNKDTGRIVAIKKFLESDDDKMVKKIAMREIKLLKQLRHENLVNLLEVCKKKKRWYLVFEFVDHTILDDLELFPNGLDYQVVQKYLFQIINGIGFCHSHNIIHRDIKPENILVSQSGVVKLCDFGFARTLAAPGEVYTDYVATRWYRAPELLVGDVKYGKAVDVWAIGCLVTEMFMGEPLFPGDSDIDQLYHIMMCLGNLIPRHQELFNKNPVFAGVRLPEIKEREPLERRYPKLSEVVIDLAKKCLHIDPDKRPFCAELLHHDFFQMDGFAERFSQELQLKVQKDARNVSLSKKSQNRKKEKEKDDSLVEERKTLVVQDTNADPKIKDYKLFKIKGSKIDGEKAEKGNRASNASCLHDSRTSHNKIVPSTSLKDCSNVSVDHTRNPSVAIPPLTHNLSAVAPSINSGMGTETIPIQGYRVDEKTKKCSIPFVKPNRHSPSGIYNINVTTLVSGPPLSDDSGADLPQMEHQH
UniProt Q13554, sequence (whole entry, looked up): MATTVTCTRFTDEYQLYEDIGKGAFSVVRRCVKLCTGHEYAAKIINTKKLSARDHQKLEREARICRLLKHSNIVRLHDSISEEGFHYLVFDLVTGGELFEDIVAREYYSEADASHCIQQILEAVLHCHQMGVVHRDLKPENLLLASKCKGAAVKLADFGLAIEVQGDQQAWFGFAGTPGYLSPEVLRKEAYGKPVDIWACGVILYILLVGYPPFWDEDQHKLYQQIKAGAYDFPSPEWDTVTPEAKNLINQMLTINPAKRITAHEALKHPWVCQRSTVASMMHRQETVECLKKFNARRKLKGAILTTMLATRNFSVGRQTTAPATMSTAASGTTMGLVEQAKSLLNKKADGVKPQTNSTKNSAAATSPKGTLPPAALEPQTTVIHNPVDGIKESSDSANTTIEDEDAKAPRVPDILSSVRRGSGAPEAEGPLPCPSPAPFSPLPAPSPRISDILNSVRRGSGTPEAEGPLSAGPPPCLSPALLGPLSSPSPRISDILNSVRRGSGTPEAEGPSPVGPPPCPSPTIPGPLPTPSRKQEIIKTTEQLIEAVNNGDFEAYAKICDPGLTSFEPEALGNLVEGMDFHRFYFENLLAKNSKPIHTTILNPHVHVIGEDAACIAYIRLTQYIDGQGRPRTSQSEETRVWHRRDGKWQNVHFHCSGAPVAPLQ
UniProt Q8NE63, sequence (whole entry, looked up): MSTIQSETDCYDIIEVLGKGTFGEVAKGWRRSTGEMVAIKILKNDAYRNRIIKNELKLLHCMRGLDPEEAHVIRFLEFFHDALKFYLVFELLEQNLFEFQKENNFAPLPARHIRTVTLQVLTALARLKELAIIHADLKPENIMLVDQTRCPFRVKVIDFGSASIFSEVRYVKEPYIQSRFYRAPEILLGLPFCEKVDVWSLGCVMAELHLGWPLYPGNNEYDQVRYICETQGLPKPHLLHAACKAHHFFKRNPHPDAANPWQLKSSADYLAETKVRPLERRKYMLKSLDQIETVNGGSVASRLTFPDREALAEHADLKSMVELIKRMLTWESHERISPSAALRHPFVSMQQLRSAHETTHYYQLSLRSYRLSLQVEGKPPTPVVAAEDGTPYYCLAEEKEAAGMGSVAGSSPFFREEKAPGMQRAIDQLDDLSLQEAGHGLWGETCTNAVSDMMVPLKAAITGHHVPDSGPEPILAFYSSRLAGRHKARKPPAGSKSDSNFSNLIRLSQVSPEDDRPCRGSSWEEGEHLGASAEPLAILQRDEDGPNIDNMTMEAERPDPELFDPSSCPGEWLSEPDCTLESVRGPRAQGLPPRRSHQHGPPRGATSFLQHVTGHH
UniProt Q15418, sequence (whole entry, looked up): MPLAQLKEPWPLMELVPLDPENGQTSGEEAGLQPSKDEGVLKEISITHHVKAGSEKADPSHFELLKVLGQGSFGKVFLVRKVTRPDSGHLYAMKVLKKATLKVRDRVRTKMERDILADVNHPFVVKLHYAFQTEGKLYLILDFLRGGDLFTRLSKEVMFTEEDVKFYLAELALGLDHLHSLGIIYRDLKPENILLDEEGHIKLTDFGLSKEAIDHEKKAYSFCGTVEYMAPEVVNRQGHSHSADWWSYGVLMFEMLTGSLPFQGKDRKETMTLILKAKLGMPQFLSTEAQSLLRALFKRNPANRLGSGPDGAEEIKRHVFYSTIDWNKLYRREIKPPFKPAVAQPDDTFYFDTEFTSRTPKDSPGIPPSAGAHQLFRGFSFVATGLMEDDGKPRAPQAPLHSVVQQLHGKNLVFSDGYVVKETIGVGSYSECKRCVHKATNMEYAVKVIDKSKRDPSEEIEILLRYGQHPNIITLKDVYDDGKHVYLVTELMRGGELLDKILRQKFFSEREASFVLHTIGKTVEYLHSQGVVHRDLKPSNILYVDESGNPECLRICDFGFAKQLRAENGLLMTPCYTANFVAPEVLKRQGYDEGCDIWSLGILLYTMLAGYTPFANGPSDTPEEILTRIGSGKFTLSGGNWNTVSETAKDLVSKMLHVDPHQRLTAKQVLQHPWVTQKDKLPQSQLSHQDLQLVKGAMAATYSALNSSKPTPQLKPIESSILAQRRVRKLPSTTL
UniProt Q9H2X6, sequence (whole entry, looked up): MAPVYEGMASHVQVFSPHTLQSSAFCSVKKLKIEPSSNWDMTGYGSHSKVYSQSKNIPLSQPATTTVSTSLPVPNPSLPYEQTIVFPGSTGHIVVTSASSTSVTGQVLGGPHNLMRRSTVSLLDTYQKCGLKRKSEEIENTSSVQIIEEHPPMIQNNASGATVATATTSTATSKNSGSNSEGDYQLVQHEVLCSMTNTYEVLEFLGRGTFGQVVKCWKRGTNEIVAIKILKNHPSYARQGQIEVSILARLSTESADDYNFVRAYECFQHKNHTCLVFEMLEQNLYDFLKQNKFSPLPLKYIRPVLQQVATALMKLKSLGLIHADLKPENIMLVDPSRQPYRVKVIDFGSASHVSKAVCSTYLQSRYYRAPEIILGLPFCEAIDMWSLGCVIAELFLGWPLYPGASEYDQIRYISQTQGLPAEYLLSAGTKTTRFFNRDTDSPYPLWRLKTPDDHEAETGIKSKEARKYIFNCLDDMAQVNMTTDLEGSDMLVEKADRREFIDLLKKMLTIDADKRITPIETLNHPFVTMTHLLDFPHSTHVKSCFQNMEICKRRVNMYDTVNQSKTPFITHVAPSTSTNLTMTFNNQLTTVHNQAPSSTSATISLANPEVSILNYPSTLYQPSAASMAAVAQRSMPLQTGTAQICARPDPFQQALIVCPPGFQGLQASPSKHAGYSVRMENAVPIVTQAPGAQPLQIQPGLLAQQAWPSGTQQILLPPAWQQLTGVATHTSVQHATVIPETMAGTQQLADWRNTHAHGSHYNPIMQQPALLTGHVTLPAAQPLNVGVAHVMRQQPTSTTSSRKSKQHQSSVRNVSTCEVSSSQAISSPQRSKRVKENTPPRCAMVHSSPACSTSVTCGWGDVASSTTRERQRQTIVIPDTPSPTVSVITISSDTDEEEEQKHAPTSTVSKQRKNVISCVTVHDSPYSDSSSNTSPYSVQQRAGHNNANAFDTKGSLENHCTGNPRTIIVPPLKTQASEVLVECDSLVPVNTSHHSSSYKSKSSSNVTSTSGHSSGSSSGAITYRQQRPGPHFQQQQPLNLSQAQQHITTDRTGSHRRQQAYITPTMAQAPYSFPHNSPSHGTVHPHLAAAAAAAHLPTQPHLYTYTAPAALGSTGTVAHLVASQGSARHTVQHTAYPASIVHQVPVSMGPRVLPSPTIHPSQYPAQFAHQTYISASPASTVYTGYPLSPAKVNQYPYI
UniProt Q2M2I8, sequence (whole entry, looked up): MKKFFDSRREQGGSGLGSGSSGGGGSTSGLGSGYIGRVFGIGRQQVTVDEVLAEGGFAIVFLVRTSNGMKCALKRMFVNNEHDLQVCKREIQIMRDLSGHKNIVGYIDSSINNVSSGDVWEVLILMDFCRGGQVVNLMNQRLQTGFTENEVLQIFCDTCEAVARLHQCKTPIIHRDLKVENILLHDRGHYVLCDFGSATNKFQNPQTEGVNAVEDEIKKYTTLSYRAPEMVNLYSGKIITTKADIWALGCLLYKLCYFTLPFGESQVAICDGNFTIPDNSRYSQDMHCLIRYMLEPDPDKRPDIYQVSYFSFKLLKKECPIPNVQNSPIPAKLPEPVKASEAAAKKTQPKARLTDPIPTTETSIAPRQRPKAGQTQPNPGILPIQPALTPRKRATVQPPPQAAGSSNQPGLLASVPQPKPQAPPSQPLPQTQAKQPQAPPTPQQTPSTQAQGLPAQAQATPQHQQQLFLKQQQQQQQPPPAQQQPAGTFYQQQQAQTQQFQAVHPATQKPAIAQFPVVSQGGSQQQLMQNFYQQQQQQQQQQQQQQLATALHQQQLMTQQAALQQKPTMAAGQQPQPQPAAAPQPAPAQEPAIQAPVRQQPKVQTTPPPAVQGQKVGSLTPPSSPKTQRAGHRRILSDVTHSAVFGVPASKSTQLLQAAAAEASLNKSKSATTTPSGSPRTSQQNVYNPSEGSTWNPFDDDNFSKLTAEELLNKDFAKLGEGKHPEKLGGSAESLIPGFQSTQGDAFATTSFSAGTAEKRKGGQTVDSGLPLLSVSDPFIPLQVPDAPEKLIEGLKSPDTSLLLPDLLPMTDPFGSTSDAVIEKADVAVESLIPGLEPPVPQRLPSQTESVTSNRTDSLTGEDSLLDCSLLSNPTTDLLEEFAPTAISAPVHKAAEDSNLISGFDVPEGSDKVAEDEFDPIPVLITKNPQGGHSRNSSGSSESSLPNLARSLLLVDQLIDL

Series 1
Target: PABPC1L2, full length, GST fusion (mouse, UniProt A0ABA7IW68)
Method: RNAcompete
Molecule type: RNA
Matrix: in vitro
Tested at: 20 nM
Setting: 7-mer, probes averaged, single round
Baseline: mean of 7-mers
Reading: higher = stronger binding
Target sequence (chain): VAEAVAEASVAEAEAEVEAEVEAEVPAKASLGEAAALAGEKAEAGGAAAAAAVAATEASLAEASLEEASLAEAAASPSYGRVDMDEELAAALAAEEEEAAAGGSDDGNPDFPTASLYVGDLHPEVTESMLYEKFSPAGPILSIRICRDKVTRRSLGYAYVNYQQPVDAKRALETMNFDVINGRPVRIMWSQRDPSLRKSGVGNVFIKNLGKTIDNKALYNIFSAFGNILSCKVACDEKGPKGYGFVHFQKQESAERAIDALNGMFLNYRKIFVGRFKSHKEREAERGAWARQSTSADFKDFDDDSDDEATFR
`GCGCGCG` has a 7-mer Z-score of -0.327.
`UGGGUUG` gave a 7-mer Z-score of -0.0772.
With `GCUGGUU` the 7-mer Z-score was -0.202.
The 7-mer Z-score of `GAUUUCC` is reported as -0.342.
The 7-mer Z-score of `UUCCCGC` is reported as -0.4.
`GUCCCCA` gave a 7-mer Z-score of -0.45.
`GUCCCUG` gave a 7-mer Z-score of -0.293.
`CAGAUCC` has a 7-mer Z-score of -0.0246.

Series 2
SMILES: CC(=O)c1ccc(N2CCOCC2)cc1O
Effect on: enzyme activity
Mode: inhibitor
Tested at: 0.5 µM
Baseline: control
For Cyclin-dependent kinase 1, with cyclin B (CDK1, Homo sapiens, UniProt P06493): remaining activity read 86.8%.
The remaining activity was 93.9% (DYRK3 (Homo sapiens, UniProt O43781)).
The remaining activity was 102% (TSSK2 (Homo sapiens, UniProt Q96PF2)).
It gave 105% for remaining activity (CAMK2B (Homo sapiens, UniProt Q13554)).
The remaining activity was 97.6% (EPHB4 (Homo sapiens, UniProt P54760)).
PHKG1 (Homo sapiens, UniProt Q16816) — remaining activity: 96.5%.
For PDPK1 (Homo sapiens, UniProt O15530): remaining activity read 111%.
For HIPK4 (Homo sapiens, UniProt Q8NE63): remaining activity read 101%.
MAPKAPK3 (Homo sapiens, UniProt Q16644) — remaining activity: 105%.
For HIPK2 (Homo sapiens, UniProt Q9H2X6): remaining activity read 106%.
STK16 (Homo sapiens, UniProt O75716) — remaining activity: 110%.
It gave 105% for remaining activity (RPS6KA5 (Homo sapiens, UniProt O75582)).

Series 3
SMILES: Cc1c[nH]c2nccc(Oc3c(F)cc(Nc4cc(Cl)nc(N)n4)cc3F)c12
Tested at: 0.1 µM
It gave 99% for remaining binding (AAK1 (Homo sapiens, UniProt Q2M2I8); binding).
CDKL2 (Homo sapiens, UniProt Q92772); cell-free assay, competition with immobilised ligand — remaining binding: 93%.
For CLK4 (Homo sapiens, UniProt Q9HAZ1); cell-free assay, competition with immobilised ligand: remaining binding read 86%.
For PIK3CA (Homo sapiens, UniProt P42336); cell-free assay, competition with immobilised ligand: remaining binding read 83%.
The remaining binding was 100% (CSNK2A1 (Homo sapiens, UniProt P68400); cell-free assay, competition with immobilised ligand).
Tyrosine-protein kinase JAK3, JH1 (JAK3, Homo sapiens, UniProt P52333); cell-free assay, competition with immobilised ligand — remaining binding: 92%.
ERBB3 (Homo sapiens, UniProt P21860); cell-free assay, competition with immobilised ligand — remaining binding: 65%.
For CDK3 (Homo sapiens, UniProt Q00526); cell-free assay, competition with immobilised ligand: remaining binding read 97%.
The remaining binding was 94% (MAP4K4 (Homo sapiens, UniProt O95819); cell-free assay, competition with immobilised ligand).
The remaining binding was 94% (PRKD2 (Homo sapiens, UniProt Q9BZL6); cell-free assay, competition with immobilised ligand).
For Ribosomal protein S6 kinase alpha-1, C-terminal kinase domain (RPS6KA1, Homo sapiens, UniProt Q15418); cell-free assay, competition with immobilised ligand: remaining binding read 100%.
The remaining binding was 100% (EPHA6 (Homo sapiens, UniProt Q9UF33); cell-free assay, competition with immobilised ligand).
The remaining binding was 98% (BRAF (Homo sapiens, UniProt P15056, V600E); cell-free assay, competition with immobilised ligand).

Series 4
Target: Eukaryotic initiation factor 4A-I (EIF4A1, Homo sapiens, UniProt P60842, residues 1-406, full length assumed)
UniProt P60842, sequence (whole entry, looked up): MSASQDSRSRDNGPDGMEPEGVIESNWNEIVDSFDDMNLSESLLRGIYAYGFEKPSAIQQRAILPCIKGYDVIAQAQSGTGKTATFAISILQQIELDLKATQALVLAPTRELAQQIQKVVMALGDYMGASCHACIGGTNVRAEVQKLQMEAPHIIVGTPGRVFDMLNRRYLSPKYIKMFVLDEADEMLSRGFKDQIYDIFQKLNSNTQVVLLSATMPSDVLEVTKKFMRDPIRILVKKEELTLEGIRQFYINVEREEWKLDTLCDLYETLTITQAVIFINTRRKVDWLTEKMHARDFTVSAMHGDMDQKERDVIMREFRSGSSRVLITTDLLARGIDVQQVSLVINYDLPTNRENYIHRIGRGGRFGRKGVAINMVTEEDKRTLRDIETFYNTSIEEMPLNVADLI
Method: RNA Bind-n-Seq
Molecule type: RNA
Matrix: in vitro
Tested at: 90 pmol
Setting: 4-mer, random 30-nt RNA, single round
Together with: 3 µM iPr-DMDA-PatA, 2 mM ADP, 2 mM phosphate
Baseline: input library
Reading: higher = stronger binding
For `GUCA`, the 4-mer enrichment was 0.991 fold.
`ACAA` has a 4-mer enrichment of 1.35 fold.
`CUAU` has a 4-mer enrichment of 1.08 fold.
The 4-mer enrichment of `AAUG` is reported as 1.19 fold.
For `AUAA`, the 4-mer enrichment was 1.53 fold.
`AACG` gave a 4-mer enrichment of 1.17 fold.
The 4-mer enrichment of `CGCU` is reported as 0.787 fold.
`GCGU` gave a 4-mer enrichment of 0.761 fold.

Some of these lines once more (series 2):
It gave 105% for remaining activity (CAMK2B (Homo sapiens, UniProt Q13554)).
The remaining activity was 97.6% (EPHB4 (Homo sapiens, UniProt P54760)).
PHKG1 (Homo sapiens, UniProt Q16816) — remaining activity: 96.5%.
For PDPK1 (Homo sapiens, UniProt O15530): remaining activity read 111%.
For HIPK4 (Homo sapiens, UniProt Q8NE63): remaining activity read 101%.
MAPKAPK3 (Homo sapiens, UniProt Q16644) — remaining activity: 105%.
